Assay results gathered from unrelated publications.
Every numbered part comes from another study and shows a few of its results, in no order.

Series 1
Target: Histone acetyltransferase KAT6A, both winged helices, GST fusion (KAT6A, Homo sapiens, UniProt Q92794, residues 1-181)
Method: protein binding microarray
Form: double-stranded DNA, one strand shown
Matrix: in vitro
Concentration: not given
Notes: 8-mer, flanks averaged, mean of 2 arrays, mostly near background
Relative to: not given
Direction: higher = stronger binding
Construct (chain): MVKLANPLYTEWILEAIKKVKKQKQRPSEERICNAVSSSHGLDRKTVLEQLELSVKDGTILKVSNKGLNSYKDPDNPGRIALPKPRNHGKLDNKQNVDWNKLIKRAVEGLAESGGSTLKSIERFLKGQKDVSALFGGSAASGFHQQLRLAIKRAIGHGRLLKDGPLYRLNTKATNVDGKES
Oligonucleotide	E-score
GTATAACA	-0.0946
ATACCATC	-0.0599
AATCTAAC	-0.0235
AGAGACGA	0.0238

Series 2
Target: Sal-like protein 4, full length isoform A (SALL4, Homo sapiens, UniProt Q9UJQ4, residues 1-1053)
Sequence of UniProt Q9UJQ4 (whole entry, looked up): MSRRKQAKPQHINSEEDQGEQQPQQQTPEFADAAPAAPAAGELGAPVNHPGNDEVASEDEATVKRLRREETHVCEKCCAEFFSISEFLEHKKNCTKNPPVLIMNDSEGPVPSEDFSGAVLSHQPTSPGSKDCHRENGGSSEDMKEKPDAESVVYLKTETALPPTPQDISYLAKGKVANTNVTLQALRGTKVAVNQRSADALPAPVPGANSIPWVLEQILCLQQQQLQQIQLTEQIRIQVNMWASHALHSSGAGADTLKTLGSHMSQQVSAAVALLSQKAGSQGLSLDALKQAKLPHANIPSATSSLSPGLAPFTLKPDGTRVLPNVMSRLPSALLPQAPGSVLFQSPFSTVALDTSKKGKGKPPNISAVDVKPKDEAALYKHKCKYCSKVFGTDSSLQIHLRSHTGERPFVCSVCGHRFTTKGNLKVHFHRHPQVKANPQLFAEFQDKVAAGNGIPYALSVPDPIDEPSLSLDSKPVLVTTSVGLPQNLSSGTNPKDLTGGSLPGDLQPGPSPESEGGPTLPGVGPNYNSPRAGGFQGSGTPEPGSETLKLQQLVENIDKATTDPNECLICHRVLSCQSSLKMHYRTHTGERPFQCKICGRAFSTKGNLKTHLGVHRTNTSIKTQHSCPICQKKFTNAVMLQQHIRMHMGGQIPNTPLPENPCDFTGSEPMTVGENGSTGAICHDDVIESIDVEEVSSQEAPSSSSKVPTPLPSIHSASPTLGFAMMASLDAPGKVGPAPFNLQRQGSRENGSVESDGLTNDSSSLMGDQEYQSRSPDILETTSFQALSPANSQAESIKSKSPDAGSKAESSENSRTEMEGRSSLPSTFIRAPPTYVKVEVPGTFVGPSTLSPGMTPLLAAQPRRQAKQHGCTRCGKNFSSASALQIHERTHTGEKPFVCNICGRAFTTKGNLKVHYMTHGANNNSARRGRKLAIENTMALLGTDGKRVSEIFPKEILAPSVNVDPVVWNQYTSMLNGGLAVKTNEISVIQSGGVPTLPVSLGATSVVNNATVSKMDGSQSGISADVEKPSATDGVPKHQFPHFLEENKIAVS
Method: universal PBM
Form: double-stranded DNA, one strand shown
Matrix: in vitro
Concentration: 600 nM
Notes: 8-mer, flanks averaged, mean of replicates
Direction: higher = stronger binding
Oligonucleotide	E-score
CTAGACAG	-0.125
CAAATTTC	0.226
CAGCTCCA	-0.243
TAACTTAA	0.344
GCGTTAAA	-0.05

Series 3
Target: Interferon regulatory factor 5, full length, phosphomimetic (IRF5, Homo sapiens, UniProt Q13568-2, residues 1-514, K96S/S451D/S453D/S456D/S462D)
Method: protein-binding microarray
Form: double-stranded DNA, one strand shown
Matrix: in vitro
Concentration: 250 nM
Notes: 60-bp whole probe
Added: salmon DNA 0.4 mg/ml
Relative to: random background probes
Direction: higher = stronger binding
Shared flanks, not repeated: GCCTAGCAC … GTGCTAGGTCTTGATTCGCTTGACGCTGCTG
Oligonucleotide	log fluorescence
TTAGGTTTCGGTATCGGTTC	11.1 z-score
TAATTTTTACTTTCTGAATG	4.2 z-score
TTAGGACTGCTACTGCTTGA	-0.454 z-score
TTAGGTCTCCTTATACTTTA	-0.0777 z-score
GACGGTCTCGGTTTCGGGGC	2.63 z-score
TTAGGTCTCGGTTTCGCTTA	4.85 z-score
GACGGTTTCGCTTCCGGGAC	5.75 z-score

Other studies, line by line
Substance	target	test	test system	setting	how to read	measurement	value
PhoQ, residues 284 288 289 292 302 303 NSMLDC	PhoP, residues 12 14 15 18 19 VHSCL (Escherichia coli, UniProt P23836)	Sort-seq, item: YFP reporter	E. coli	PhoQ-PhoP variant library, added: 10 µM Mg2+	relative to: high Mg2+ state, higher = stronger signaling	fold induction	8.05

For quick reference, copied from above (series 2):
Oligonucleotide	E-score
GCGTTAAA	-0.05
CAGCTCCA	-0.243
